Measurements collected from several papers.
Numbers after ± are the reported error.

For CCCCCc1cc(OC(=O)C(NC(=O)CCC(=O)O)C(C)C)c2c(c1)OC(C)(C)C1CCC(C)=CC21 (stereo not drawn), the Papp was 6.5 ± 2.3 ×10⁻⁶ cm/s (isolated rabbit cornea; 3 h, pH 7.4, 34 °C, donor 1.5% RMβCD).
The compound remaining of CN[C@@H]1[C@H](O)[C@H](NC)[C@H]2O[C@]3(O)[C@H](O[C@@H]2[C@H]1O)O[C@H](C)C[C@H]3NC(=O)Cc1cscn1 is reported as 109% (metabolic stability; rat, liver microsomes; 90 min).
CCCCCc1cc(O)c2c(c1)OC(C)(C)C1CCC(C)=CC21 (stereo not drawn) gave a Papp of 5.6 ×10⁻⁶ cm/s (isolated rabbit cornea; 3 h, pH 7.4, 34 °C, donor 2.5% HPβCD).
CSCC[C@@H]1NC(=O)[C@H](CCC(=O)O)NC(=O)[C@H](CC(C)C)NC(=O)[C@H](CC(C)C)NC(=O)[C@H](CCCCN)NC(=O)[C@H](CC(=O)O)NC(=O)[C@H](CC(=O)O)NC(=O)[C@H](CC(N)=O)NC(=O)[C@H](CC(=O)O)NC(=O)[C@@H]2CSSC[C@@H]3NC(=O)[C@H]([C@@H](C)O)NC(=O)[C@H](C(C)C)NC(=O)[C@@H]4CCCN4C(=O)[C@H](CSSC[C@H](NC(=O)[C@H](CC(=O)O)NC(=O)[C@H](Cc4ccccc4)NC(=O)[C@H](CC(N)=O)NC(=O)[C@H](CCCCN)NC(=O)[C@H](CCC(=O)O)NC(=O)[C@H](CC(=O)O)NC(=O)[C@H](C)NC(=O)[C@@H](NC(=O)[C@H](Cc4c[nH]cn4)NC(=O)[C@@H](N)CCC(=O)O)CSSC[C@@H](C(N)=O)NC(=O)[C@H](Cc4ccccc4)NC(=O)CNC3=O)C(=O)N[C@@H](CCCNC(=N)N)C(=O)N[C@@H](CCCNC(=N)N)C(=O)N[C@@H](CO)C(=O)N[C@@H](CC(C)C)C(=O)N[C@@H](CCCNC(=N)N)C(=O)N[C@@H](CC(N)=O)C(=O)NCC(=O)N[C@@H](CC(=O)O)C(=O)N2)NC(=O)[C@H](Cc2ccc(O)cc2)NC(=O)[C@H](Cc2ccc(O)cc2)NC(=O)CNC1=O has a half-life of 2.4 h (chemical stability; pig, simulated intestinal fluid).
CC1=C[C@H]2c3c(O)cc(CCc4ccccc4)cc3OC(C)(C)[C@H]2CC1 has a brain concentration of roughly 1400 nM (LC-MS/MS; BALB/c mouse, brain; intraperitoneal, 50 mg/kg, 1 h).
N[C@]1(c2ccccc2Cl)CCC[C@H](O)C1=O has a Cmax of 4710 ± 1220 ng/mL (Wistar rat, plasma; oral, 20 mg/kg).
With CN[C@@H]1[C@H](O)[C@H](NC)[C@H]2O[C@]3(O)[C@H](O[C@@H]2[C@H]1O)O[C@H](C)C[C@H]3NC(=O)Cc1ccccn1 the compound remaining was 83.7% (metabolic stability; rat, liver microsomes; 90 min).
For O=C(Cc1cccs1)N[C@@H]1C(=O)N2C(C(=O)O)=C(CSc3cccc[n+]3[O-])CS[C@H]12, metabolic stability read “stable” (mouse liver microsomes; 0.5 µM).
The logD of CC(CC(F)(F)F)(N=[N+]=[N-])C1C2OC(=O)C1C1(O)CC3OC34C(=O)OC2C14C (stereo not drawn) is reported as 1.43 (pH 7.4).
CCC(=C(c1ccc(Cl)cc1)c1ccc(OCCN2CCOCC2)cc1)c1ccccc1 gave a CC50 of 15.1 µg/mL (human).
For C#CCCCNCCNc1ccnc2cc(Cl)ccc12, the CC50 was 89 ± 0.3 µM (monkey cells).
N=C(N)NCCC[C@H](NC(=O)[C@@H](N)CO)C(=O)N[C@@H](Cc1ccc(O)cc1)C(=O)N[C@@H](Cc1ccc(O)cc1)C(=O)N1CCC[C@H]1C(=O)N[C@@H](Cc1ccccc1)C(=O)N[C@@H](Cc1ccccc1)C(=O)NCC(=O)N[C@@H](CC(=O)O)C(=O)N[C@@H](CO)C(=O)O gave a CC50 of greater than 100 µM (cytotoxicity; human cells; 2 (unit not given)).
